# Experimental data collected from several papers.
# Parts stem from different laboratories: compare values within a part only.
# Chain of UniProt Q9Y6R4 (whole entry, looked up): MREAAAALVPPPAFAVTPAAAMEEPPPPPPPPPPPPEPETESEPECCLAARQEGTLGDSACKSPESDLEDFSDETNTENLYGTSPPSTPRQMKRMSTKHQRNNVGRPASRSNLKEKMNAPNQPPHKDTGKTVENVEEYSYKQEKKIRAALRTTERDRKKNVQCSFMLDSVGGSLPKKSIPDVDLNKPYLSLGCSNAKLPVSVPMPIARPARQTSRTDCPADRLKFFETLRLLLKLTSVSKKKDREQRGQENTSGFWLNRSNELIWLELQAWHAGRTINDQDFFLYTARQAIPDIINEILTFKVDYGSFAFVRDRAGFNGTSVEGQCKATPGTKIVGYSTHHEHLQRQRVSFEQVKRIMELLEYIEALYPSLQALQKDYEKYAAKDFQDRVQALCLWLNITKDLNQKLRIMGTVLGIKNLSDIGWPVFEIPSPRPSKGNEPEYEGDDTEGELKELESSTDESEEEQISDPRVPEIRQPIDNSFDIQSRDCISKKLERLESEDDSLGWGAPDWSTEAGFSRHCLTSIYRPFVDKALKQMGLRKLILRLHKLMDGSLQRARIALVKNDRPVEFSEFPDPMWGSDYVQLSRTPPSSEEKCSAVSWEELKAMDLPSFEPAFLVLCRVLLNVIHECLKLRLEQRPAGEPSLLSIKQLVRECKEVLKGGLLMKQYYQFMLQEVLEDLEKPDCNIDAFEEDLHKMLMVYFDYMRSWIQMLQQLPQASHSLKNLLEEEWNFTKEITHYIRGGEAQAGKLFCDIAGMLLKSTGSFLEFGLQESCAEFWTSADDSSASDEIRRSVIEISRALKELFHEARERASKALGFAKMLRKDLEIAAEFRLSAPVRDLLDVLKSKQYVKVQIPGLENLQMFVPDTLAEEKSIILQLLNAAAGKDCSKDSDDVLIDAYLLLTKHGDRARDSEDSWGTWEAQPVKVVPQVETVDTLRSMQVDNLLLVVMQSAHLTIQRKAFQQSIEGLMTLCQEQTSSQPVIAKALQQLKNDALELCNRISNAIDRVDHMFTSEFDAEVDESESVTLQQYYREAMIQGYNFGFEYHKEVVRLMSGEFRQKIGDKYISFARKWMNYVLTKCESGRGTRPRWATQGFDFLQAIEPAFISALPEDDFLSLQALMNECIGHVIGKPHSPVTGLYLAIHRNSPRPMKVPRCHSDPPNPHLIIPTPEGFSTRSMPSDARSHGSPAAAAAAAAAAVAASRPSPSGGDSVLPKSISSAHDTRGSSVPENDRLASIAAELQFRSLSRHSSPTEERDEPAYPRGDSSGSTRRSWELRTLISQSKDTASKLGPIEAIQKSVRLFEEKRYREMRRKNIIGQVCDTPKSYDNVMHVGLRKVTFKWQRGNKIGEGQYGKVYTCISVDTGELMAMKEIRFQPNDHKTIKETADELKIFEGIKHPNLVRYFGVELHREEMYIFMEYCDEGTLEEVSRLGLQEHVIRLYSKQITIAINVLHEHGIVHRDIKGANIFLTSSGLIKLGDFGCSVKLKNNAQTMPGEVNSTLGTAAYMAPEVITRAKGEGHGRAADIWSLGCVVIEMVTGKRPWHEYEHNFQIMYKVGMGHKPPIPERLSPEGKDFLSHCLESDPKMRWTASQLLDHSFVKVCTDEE
# Chain of UniProt Q9BYP7 (whole entry, looked up): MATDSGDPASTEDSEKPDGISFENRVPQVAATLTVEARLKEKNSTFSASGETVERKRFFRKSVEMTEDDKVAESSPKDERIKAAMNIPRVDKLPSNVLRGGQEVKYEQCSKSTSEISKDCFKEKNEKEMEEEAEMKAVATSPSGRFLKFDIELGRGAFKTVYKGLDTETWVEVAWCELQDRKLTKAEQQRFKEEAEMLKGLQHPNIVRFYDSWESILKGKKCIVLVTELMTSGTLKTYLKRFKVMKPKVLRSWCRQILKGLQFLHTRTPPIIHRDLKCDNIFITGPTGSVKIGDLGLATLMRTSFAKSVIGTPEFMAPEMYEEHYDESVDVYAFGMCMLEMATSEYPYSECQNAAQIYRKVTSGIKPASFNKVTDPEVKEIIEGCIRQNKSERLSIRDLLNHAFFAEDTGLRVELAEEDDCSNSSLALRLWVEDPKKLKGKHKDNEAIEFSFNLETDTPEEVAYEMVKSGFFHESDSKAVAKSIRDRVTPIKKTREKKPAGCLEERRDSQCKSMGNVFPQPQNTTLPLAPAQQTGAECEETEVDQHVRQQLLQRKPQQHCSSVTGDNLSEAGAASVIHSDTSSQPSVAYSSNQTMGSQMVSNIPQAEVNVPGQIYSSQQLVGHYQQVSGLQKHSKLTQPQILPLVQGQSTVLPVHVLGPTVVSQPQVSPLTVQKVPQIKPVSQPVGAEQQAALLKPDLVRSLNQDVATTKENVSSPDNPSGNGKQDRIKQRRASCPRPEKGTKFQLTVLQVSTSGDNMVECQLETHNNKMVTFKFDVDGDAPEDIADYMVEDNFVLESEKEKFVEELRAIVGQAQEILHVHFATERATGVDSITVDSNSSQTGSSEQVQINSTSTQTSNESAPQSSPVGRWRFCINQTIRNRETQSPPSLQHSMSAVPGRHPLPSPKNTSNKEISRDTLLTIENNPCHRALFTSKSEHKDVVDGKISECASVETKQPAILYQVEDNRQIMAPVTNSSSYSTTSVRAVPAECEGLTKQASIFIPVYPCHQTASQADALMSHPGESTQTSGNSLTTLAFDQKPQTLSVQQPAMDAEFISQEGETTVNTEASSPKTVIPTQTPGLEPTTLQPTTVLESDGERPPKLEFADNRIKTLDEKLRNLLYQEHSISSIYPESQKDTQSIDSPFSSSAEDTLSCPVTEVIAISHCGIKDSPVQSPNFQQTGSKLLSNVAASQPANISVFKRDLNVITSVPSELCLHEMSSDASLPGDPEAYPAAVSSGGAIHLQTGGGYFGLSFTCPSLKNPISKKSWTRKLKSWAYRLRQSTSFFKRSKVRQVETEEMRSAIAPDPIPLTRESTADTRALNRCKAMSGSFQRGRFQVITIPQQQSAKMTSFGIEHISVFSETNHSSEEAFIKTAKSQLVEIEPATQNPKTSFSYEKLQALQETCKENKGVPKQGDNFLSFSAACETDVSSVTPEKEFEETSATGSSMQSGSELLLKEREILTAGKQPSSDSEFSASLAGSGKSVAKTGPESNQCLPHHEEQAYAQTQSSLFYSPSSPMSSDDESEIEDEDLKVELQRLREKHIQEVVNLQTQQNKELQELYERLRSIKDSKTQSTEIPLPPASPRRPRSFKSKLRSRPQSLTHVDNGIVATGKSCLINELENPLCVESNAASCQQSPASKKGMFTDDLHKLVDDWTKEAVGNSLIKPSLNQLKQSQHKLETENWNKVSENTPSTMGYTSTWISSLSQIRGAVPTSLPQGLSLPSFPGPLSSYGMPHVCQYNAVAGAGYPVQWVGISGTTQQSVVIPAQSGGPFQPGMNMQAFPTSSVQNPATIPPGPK
# Chain of UniProt Q6P3R8 (whole entry, looked up): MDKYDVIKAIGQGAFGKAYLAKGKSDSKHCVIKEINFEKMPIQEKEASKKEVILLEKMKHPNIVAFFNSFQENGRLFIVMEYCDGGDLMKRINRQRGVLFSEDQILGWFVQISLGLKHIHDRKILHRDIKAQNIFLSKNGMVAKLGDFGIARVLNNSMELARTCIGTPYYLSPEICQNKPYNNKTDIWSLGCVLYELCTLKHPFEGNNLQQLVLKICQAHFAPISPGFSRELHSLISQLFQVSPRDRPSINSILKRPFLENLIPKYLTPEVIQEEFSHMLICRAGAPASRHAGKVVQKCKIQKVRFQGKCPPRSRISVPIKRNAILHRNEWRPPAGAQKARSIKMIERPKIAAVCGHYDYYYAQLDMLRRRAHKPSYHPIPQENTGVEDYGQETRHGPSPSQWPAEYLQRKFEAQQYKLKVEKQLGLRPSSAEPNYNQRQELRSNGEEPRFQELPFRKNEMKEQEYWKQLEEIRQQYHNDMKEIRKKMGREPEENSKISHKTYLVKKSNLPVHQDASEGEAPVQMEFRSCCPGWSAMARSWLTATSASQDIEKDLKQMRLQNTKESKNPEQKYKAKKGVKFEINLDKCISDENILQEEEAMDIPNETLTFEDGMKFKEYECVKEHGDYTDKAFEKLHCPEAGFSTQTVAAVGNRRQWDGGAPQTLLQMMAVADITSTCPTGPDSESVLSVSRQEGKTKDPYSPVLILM
# Chain of UniProt Q52WX2 (whole entry, looked up): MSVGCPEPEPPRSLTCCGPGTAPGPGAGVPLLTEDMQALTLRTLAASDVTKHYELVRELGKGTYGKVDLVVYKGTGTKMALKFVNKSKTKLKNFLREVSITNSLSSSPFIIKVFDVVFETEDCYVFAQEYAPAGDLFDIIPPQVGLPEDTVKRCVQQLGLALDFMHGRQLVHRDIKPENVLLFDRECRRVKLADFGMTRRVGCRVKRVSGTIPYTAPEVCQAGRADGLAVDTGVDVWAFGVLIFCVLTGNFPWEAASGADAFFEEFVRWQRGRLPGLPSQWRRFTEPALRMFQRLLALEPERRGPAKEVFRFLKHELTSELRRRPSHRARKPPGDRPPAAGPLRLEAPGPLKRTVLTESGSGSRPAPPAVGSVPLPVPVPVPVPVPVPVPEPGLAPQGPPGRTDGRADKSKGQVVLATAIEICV
# Chain of UniProt P51956 (whole entry, looked up): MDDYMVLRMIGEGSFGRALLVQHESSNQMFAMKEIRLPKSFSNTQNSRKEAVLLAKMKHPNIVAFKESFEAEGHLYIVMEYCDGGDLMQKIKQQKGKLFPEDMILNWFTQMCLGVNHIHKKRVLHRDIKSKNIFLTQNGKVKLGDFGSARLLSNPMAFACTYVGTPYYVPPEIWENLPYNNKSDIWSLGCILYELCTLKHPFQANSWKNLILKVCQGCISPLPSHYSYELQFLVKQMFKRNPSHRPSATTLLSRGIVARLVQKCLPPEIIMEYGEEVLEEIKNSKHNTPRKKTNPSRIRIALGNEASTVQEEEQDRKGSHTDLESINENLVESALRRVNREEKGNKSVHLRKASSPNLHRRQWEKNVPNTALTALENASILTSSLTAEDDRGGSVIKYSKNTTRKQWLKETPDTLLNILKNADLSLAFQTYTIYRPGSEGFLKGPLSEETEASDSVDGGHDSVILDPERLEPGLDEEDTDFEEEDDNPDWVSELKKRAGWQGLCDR

# Series 1
# Organism: Sarcocystis neurona
# Observed: parasite activity
# Concentration: 10 µM
# Time: 96 h
SMILES,activity class
CN(C)CCCC1(c2ccc(F)cc2)OCc2cc(C#N)ccc21 (stereo not drawn),inactive
O=c1c(O[C@@H]2O[C@H](CO)[C@@H](O)[C@H](O)[C@H]2O)c(-c2ccc(O)c(O)c2)oc2cc(O)cc(O)c12,inactive
Cc1ccnc2c1NC(=O)c1cccnc1N2C1CC1,inactive
Nc1ccn([C@@H]2O[C@H](CO)[C@@H](O)[C@@H]2O)c(=O)n1,inactive
Oc1c(Cl)cc(Cl)c(Cl)c1Cc1c(O)c(Cl)cc(Cl)c1Cl,active
COCCCOc1ccnc(C[S+]([O-])c2nc3ccccc3[nH]2)c1C (stereo not drawn),inactive
CCc1oc2ccccc2c1C(=O)c1cc(Br)c(O)c(Br)c1,inactive
Cc1cnc(C(=O)NCCc2ccc(S(=O)(=O)NC(=O)NC3CCCCC3)cc2)cn1,inactive
COc1cc2nc(N3CCN(C(=O)C4CCCO4)CC3)nc(N)c2cc1OC (stereo not drawn),inactive

# Series 2
# Target: Activin receptor type-1 (ACVR1, Homo sapiens, UniProt Q04771)
# Observed: enzyme activity
# Mode: inhibitor
# Concentration: 0.5 µM
# Relative to: control
# Residues (Q04771 1-509): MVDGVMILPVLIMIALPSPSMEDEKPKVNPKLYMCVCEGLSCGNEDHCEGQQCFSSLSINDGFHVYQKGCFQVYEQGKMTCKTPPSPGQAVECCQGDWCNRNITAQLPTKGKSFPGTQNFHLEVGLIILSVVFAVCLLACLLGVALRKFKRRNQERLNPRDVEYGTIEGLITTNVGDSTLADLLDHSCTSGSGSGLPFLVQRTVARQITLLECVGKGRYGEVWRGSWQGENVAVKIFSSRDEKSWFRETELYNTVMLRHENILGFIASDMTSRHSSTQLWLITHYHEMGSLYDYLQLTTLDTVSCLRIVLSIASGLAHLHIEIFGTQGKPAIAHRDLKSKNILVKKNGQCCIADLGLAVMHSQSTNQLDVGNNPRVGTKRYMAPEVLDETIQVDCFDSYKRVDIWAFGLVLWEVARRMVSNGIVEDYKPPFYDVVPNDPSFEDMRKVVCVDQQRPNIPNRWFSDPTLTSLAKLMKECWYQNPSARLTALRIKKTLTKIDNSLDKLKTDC
SMILES,remaining activity
Cc1cc(Nc2nc(-c3ccccc3)nc3ccccc23)n[nH]1,149%
Oc1ccc(Nc2nc(-c3ccc(Cl)cc3)cs2)cc1,94.9%
O=C1NC(=O)C(c2c[nH]c3ccccc23)=C1c1c[nH]c2ccccc12,97.1%
CC#CC(=O)Nc1cc2c(Nc3ccc(F)c(Cl)c3)ncnc2cn1,105%
Cc1cncc2cccc(S(=O)(=O)N3CCCN(C(=O)CN)C[C@@H]3C)c12,95.8%
O=S(=O)(NCCNC/C=C/c1ccc(Br)cc1)c1cccc2cnccc12,96.4%
COc1ccc(S(=O)(=O)N(CCO)c2ccccc2CN(C)CC=Cc2ccc(Cl)cc2)cc1,90.6%
Nc1nccc(-c2c(-c3ccc(F)cc3)ncn2C2CCNCC2)n1,86.5%
CC(=O)c1ccc(N2CCOCC2)cc1O,107%

# Series 3
# Host: human
# Matrix: microsomes or S9
# Concentration: 2 µM
# Time: 0.5 h
Compound,remaining compound [%]
Cc1ccccc1S(=O)(=O)Nc1nc2ccccc2nc1NC(c1ccccc1)c1nccn1C (stereo not drawn),> 100
CCc1ncc(CN(C)c2ccc(-n3ccc(C)n3)nn2)s1,35.6
Cc1nc(CCNCc2csc(-c3ncccn3)n2)cs1,69
CN(C(=O)CN1CCc2nc(N3CCCC3)[nH]c(=O)c2C1)C1CCCCC1,85.4
O=C(NC1CCN(Cc2ccc(OC3CCNCC3)c(Br)c2)CC1)c1ccc(-c2ccccc2)o1,> 100
COc1ccc(CN2C(=O)N[C@@H](CC(=O)Nc3nc(C(C)(C)C)cs3)C2=O)cc1OC,4.37
Cc1cc(=O)[nH]c(SCC(=O)c2cc(C)n(CC3CCCO3)c2C)c1C#N (stereo not drawn),26.8

# Series 4
# Structure (SMILES): O=C(NS(=O)(=O)c1ccc(NCC2CCOCC2)c([N+](=O)[O-])c1)c1ccc(N2CCN(Cc3ccc(C(F)(F)F)cc3-c3ccc(Cl)cc3)CC2)cc1Oc1cnc2[nH]ccc2c1
# Observed: cell-free assay
# Method: competition with immobilised ligand
# Concentration: 1 µM
target,remaining binding [%]
"Serine/threonine-protein kinase Nek5 (NEK5, Homo sapiens, UniProt Q6P3R8)",100
"Dual specificity tyrosine-phosphorylation-regulated kinase 1B (DYRK1B, Homo sapiens, UniProt Q9Y463)",80
"LIM domain kinase 2 (LIMK2, Homo sapiens, UniProt P53671)",97
"Serine/threonine-protein kinase SBK1 (SBK1, Homo sapiens, UniProt Q52WX2)",100
"Epidermal growth factor receptor (EGFR, Homo sapiens, UniProt P00533, del747-750/T751S)",88
"MAP kinase-interacting serine/threonine-protein kinase 2 (MKNK2, Homo sapiens, UniProt Q9HBH9)",83
"Myotonin-protein kinase (DMPK, Homo sapiens, UniProt Q09013)",100
"Serine/threonine-protein kinase Nek3 (NEK3, Homo sapiens, UniProt P51956)",85
"Hepatocyte growth factor receptor (MET, Homo sapiens, UniProt P08581, M1250T)",86
"Mitogen-activated protein kinase kinase kinase 4 (MAP3K4, Homo sapiens, UniProt Q9Y6R4)",94
"Serine/threonine-protein kinase WNK3 (WNK3, Homo sapiens, UniProt Q9BYP7)",100

# A few entries again (series 2):
SMILES,remaining activity
Cc1cc(Nc2nc(-c3ccccc3)nc3ccccc23)n[nH]1,149%
O=S(=O)(NCCNC/C=C/c1ccc(Br)cc1)c1cccc2cnccc12,96.4%
CC(=O)c1ccc(N2CCOCC2)cc1O,107%
Nc1nccc(-c2c(-c3ccc(F)cc3)ncn2C2CCNCC2)n1,86.5%
COc1ccc(S(=O)(=O)N(CCO)c2ccccc2CN(C)CC=Cc2ccc(Cl)cc2)cc1,90.6%
O=C1NC(=O)C(c2c[nH]c3ccccc23)=C1c1c[nH]c2ccccc12,97.1%
